Results from different studies.
Each line is one published result; not all experiments were run side by side. Several values in a cell are separate wells, animals, samples, runs or records. ± gives the spread as reported.
USP14: Ubiquitin carboxyl-terminal hydrolase 14 (USP14, Homo sapiens, UniProt P54578)
PPO3: PPO3 (Agaricus bisporus, UniProt C7FF04)
Gria2/Glutamate receptor 3: Gria2/Glutamate receptor 3 (Rattus norvegicus, UniProt P19491+P19492)
T1: DNA hairpin, hairpin; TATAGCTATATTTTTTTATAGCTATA

`CC(/C=C/C(=O)NO)=C\[C@@H](C)C(=O)c1ccc(N(C)C)cc1` has a TΔS° of 1.23 kcal/mol (HDAC8 (Homo sapiens, UniProt Q9BY41); ITC; Tris-HCl buffer; 288 K).
The inhibition of `O=C1c2ccccc2C(=O)c2c1oc1c3c(ccc21)OCN(CC1CCCO1)C3` (stereo not drawn) is reported as 58% (USP14; enzyme activity, inhibitor; 17 µM).
The remaining signal of `CCOC(=O)C1CCCN(CCOC23CC4CC(CC(C4)C2)C3)C1` (stereo not drawn) is reported as 108% (SLC6A9 (Homo sapiens, UniProt P48067); cell-free assay; 1 µM).
`CC(C)Oc1cc(Cl)ccc1CNc1cc(-c2ccccc2)nc2ncnn12` has a cAMP luminescence of 23800 a.u. and 28300 a.u. and 17700 a.u. and 27500 a.u. (GPR3 (Homo sapiens, UniProt P46089, R152A); cAMP level, cAMP GloSensor; 300 nM; higher = more cAMP).
`COc1cc(Nc2nc(C)cc(-c3cnn4nc(OC)ccc34)n2)cc(C(F)(F)F)c1` has a remaining activity of 85% (PIK3CA (Homo sapiens, UniProt P42336, H1047Y); inhibitor; 1 µM; baseline: control).
For `Oc1cc(O)c2cc(O[C@@H]3OC[C@H](O)[C@H](O)[C@H]3O)c(-c3ccc(O)c(O)c3)[o+]c2c1`, “binding free energy ΔG” read -5.282 ± 0.00478 kcal/mol (PPO3; fluorescence quenching; 318 K).
`O=C1c2sc(-c3ccc(N4CCC(F)C4)nc3F)nc2CCN1c1cccnc1` (stereo not drawn) gave an SPR response of 0.573 RU (TAR DNA-binding protein 43, aggregated (TARDBP, Homo sapiens, UniProt Q13148); binding, surface plasmon resonance; brain-derived TDP-43 aggregates; 1.17 nM).
`NC(=S)Cc1nc2ccccc2s1` gave an inhibition of 30% (USP14; enzyme activity, inhibitor; 17 µM).
Under “melting temperature shift”, `C=CC(=O)N1CCCC(n2c(=O)c3ncccc3n(Cc3ccc(Oc4ccccc4)cc3)c2=O)C1` (stereo not drawn) is recorded as -4.17 (USP14; thermal proteome profiling; cell proteome; unit not given; baseline: vehicle).
For `CCCCCCCO[C@H]1CO[C@H](CO)[C@@H](O)[C@H](O)[C@@H]1O`, “enthalpy change (ΔH obs)” read -11.8 kcal/mol (Type 1 fimbrin D-mannose specific adhesin, lectin domain (fimH, Escherichia coli K-12, UniProt P08191); isothermal titration calorimetry; concentration not given, 25 °C).
`O=C(O)Cc1cc2c(cc1C(=O)c1ccccc1I)OCO2`: “deactivation time constant” 3.2 ± 0.2 ms (Gria2/Glutamate receptor 3; whole-cell patch clamp; HEK-293T; concentration not given, added: glutamate).
`C[C@H](NC(=O)CN)C(=O)NCC(=O)N[C@@H](C)C(=O)N[C@@H](C)C(=O)NCC(=O)NCC(=O)N[C@@H](C)C(=O)NCC(=O)NCC(=O)NCC(=O)NCC(=O)NCC(=O)NCC(=O)NCC(=O)N[C@@H](CCCCNC(=O)CCCC[C@@H]1SC[C@@H]2NC(=O)N[C@@H]21)C(N)=O` — result for “relative surface expression”: 1.16 and 1.08 (Cd274 (Mus musculus, UniProt Q9EP73); flow cytometry, item: Cd274; concentration not given, 24 h; baseline: 0 h).
The remaining binding of `Nc1ncc2c(n1)-c1c([nH]c3ccc(C4=CCOCC4)cc13)CCC2` is reported as 100% (Tyrosine-protein kinase ABL1, non-phosphorylated (ABL1, Homo sapiens, UniProt P00519, Q252H); binding, competition with immobilised ligand; 1 µM).
The remaining activity of `C#CCOC(=O)[C@@]1(C)C=C(C(=O)Nc2cccc(C(=O)Nc3ccc(C)c(Nc4nccc(-c5cccnc5)n4)c3)c2)C(=O)CC1` is reported as 0.274 (MAPK9 (Homo sapiens, UniProt P45984); enzyme activity, inhibitor; 0.5487 µM, unit not given; baseline: vehicle).
The inhibition of `N#CC(=Cc1cccs1)C(N)=C(C#N)C#N` is reported as 12% (USP14; enzyme activity, inhibitor; 17 µM).
`CCCCCC=CC=C1C(=O)C=CC1CC=CCCCC(=O)O` (stereo not drawn): “isoTOP-ABPP competition ratio” 1.5 (DNA polymerase epsilon subunit 3 (Homo sapiens, UniProt Q9NRF9); competitive isoTOP-ABPP, item: POLE3 cysteine peptide; Ramos soluble proteome; 100 µM, added: iodoacetamide probe; baseline: DMSO over compound-treated, higher = stronger cysteine blockade).
`COC(=O)Cc1cc2c(cc1C(=O)c1ccccc1Br)OCO2`: “current amplitude after recovery” 502 ± 27 pA (Gria2/Glutamate receptor 3; glutamate-evoked current, whole-cell patch clamp; HEK-293T; concentration not given, glutamate alone after washout, added: glutamate).
`CCCC[C@H](NC(=O)[C@H](CCC(N)=O)NC(=O)[C@H](CCC(=O)O)NC(=O)[C@@H]1CCCN1C(=O)[C@@H](NC(=O)[C@H](C)NC(=O)[C@H](CC(N)=O)NC(=O)[C@H](CC(=O)O)NC(=O)CNC(=O)[C@@H]1CCCN1C(=O)[C@H](Cc1ccc(O)cc1)NC(=O)[C@@H](NC(=O)[C@@H]1CCCN1C(=O)[C@H](CCC(=O)O)NC(=O)[C@H](CC(C)C)NC(=O)[C@@H]1CCCN1C(=O)[C@H](C)N)C(C)C)[C@@H](C)O)C(=O)N[C@@H](C)C(=O)N[C@@H](CCC(N)=O)C(=O)N[C@@H](Cc1ccc(O)cc1)C(=O)N[C@@H](C)C(=O)N[C@@H](CCCCNC(=O)c1ccc2c(c1)C(=O)OC21c2ccc(N(C)C)cc2Oc2cc(N(C)C)ccc21)C(=O)N[C@@H](CC(=O)O)C(=O)N[C@@H](CC(C)C)C(=O)N[C@@H](CCCNC(=N)N)C(=O)N[C@@H](CCCNC(=N)N)C(=O)N[C@@H](Cc1ccc(O)cc1)C(=O)N[C@H](C(=O)N[C@@H](CC(N)=O)C(=O)N[C@@H](CCCC)C(=O)N[C@@H](CC(C)C)C(=O)N[C@H](C(=O)N[C@@H](CCCNC(=N)N)C(=O)N1CCC[C@H]1C(=O)N[C@@H](CCCNC(=N)N)C(=O)N[C@@H](Cc1ccc(O)cc1)C(N)=O)[C@@H](C)O)[C@@H](C)CC` gave a BRETmax of 0.042 ± 0.0008 (NPY4R (Homo sapiens, UniProt P50391, N301A); NanoBRET binding; Nluc-tagged receptor N301A, unit not given; net BRET ratio).
For `O=C(Nc1cc(C(=O)Nc2ccc(S(=O)(=O)O)cc2S(=O)(=O)O)cc(C(=O)Nc2ccc(S(=O)(=O)O)cc2S(=O)(=O)O)c1)Nc1cc(C(=O)Nc2ccc(S(=O)(=O)O)cc2S(=O)(=O)O)cc(C(=O)Nc2ccc(S(=O)(=O)O)cc2S(=O)(=O)O)c1`, the calcium influx was 0% and 7.14% (P2X purinoceptor 1 (P2RX1, Homo sapiens, UniProt P51575); antagonist, calcium influx; 3.16 µM, added: submaximal α,β-methylene ATP; baseline: ionomycin response).
For `C#CCCC1(CCC(=O)NCC2CN(CCCCCNC(=O)CN(CCN)C(=O)Cn3cnc4c(=O)[nH]c(N)nc43)CCN(CCCCCNC(=O)CN(CCN)C(=O)Cn3cnc4c(=O)[nH]c(N)nc43)CCN(CCCCCNC(=O)CN(CCN)C(=O)Cn3cnc4c(=O)[nH]c(N)nc43)CCN2CCCCCNC(=O)CN(CCN)C(=O)Cn2cnc3c(=O)[nH]c(N)nc32)N=N1` (stereo not drawn), “change in melting temperature” read 0.6 °C (T1, DNA hairpin, hairpin; FRET melting).
The remaining protein of `Cn1c(=O)n(C2CCC(=O)NC2=O)c2ccc(C3CCN(CC(=O)Nc4cccc(CS(=O)(=O)N5CC[C@H](Nc6cccc(-c7sc(C(=O)O)c(OCC(=O)O)c7Cl)c6)CC5(C)C)c4)CC3)cc21` (stereo partly drawn) is reported as 110% and 96.1% (Tyrosine-protein phosphatase non-receptor type 2 (Ptpn2, Mus musculus, UniProt Q06180); degrader, Western blot; B16-F10; 0.0001 µM).
For `O=Cc1ccc(-c2cn([C@@H]3O[C@H](COP(=O)(O)OP(=O)(O)O[C@H]4O[C@H](CO)[C@H](O)[C@H](O)[C@H]4O)[C@@H](O)[C@H]3O)c(=O)[nH]c2=O)s1`, the relative activity was ~1% (ABO (Homo sapiens, UniProt P16442, G268A/L266G); substrate; concentration not given, sub-saturating; baseline: UDP-Gal).
For `N#Cc1ccc(-c2cc(CN3c4ccccc4C=Cc4ccccc43)on2)cc1`, the apparent Km was 4.56 mM (PPO3; enzyme activity, inhibitor; concentration not given).
The binding stoichiometry of `CC(=O)N[C@@H](Cc1ccc(O)cc1)C(=O)N[C@@H](CC(N)=O)C(=O)N1CCC[C@H]1C(=O)N[C@@H](Cc1ccccc1)C(=O)N[C@@H](CCC(=O)O)C(=O)N[C@@H](CCC(=O)O)C(=O)NCC(=O)NCC(N)=O` is reported as 1.04 ± 0.07 (EH domain-containing protein 1, EH domain (Homo sapiens, UniProt Q9H4M9); ITC; concentration not given, 0 mM NaCl).
